Assay results pooled from the literature.
Numbered parts are unrelated; each lists some results of a single study. “And” joins repeats or separate records; there may be more than shown.
Chain of UniProt Q99755 (whole entry, looked up): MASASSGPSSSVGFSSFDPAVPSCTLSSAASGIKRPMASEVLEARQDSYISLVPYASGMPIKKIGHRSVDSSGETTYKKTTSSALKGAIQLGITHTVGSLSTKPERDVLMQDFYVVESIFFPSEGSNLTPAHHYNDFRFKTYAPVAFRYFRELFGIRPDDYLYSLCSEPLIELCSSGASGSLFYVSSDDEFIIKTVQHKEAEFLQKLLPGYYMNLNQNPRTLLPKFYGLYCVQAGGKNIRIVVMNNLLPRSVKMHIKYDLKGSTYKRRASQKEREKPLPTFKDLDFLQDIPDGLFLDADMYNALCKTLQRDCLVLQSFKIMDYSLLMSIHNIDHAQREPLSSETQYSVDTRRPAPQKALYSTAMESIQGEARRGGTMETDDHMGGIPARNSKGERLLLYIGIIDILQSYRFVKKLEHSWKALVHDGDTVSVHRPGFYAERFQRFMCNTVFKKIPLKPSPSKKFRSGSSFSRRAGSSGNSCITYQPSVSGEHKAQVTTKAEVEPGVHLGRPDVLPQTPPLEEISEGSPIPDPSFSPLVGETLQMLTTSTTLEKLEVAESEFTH
Chain of UniProt Q9UK32 (whole entry, looked up): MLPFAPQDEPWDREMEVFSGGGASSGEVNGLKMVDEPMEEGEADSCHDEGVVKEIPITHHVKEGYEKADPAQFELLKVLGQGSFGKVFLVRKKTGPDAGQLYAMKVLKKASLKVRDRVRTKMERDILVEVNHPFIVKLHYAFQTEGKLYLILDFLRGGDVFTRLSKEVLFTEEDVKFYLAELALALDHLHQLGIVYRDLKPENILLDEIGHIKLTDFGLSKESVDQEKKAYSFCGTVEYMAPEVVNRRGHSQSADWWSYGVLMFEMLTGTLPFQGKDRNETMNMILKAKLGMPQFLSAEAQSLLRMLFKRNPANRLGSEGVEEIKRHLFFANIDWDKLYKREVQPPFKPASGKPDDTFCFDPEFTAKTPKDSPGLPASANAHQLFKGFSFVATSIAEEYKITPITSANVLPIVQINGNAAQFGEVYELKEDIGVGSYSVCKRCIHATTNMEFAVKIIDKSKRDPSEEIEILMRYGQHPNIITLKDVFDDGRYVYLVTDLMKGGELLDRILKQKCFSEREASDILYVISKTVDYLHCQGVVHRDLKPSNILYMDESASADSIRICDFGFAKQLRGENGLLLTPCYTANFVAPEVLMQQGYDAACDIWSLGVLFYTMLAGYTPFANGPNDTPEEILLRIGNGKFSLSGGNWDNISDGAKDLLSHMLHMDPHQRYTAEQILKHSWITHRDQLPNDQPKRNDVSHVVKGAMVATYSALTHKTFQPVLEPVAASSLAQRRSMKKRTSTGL

Sample 1 — concentration: 1 µM; measurement: remaining binding
SMILES: CC[C@@]1(c2cccc(C(F)(F)F)c2)C2=C(Nc3n[nH]cc31)[C@H](F)C(C)(C)CC2=O (single isomer, unassigned)
target = Epidermal growth factor receptor (EGFR, Homo sapiens, UniProt P00533, del752-759); test = binding, competition with immobilised ligand; value = 73%
target = Hepatocyte growth factor receptor (MET, Homo sapiens, UniProt P08581, Y1235D); test = binding, competition with immobilised ligand; value = 100%
target = Serine/threonine-protein kinase B-raf (BRAF, Homo sapiens, UniProt P15056, V600E); test = binding, competition with immobilised ligand; value = 98%
target = SRSF protein kinase 1 (SRPK1, Homo sapiens, UniProt Q96SB4); test = kinase binding, KINOMEscan; scale = reference: DMSO control; value = 99%
target = Epidermal growth factor receptor (EGFR, Homo sapiens, UniProt P00533, del747-752/P753S); test = kinase binding, KINOMEscan; scale = reference: DMSO control; value = 82%
target = NUAK family SNF1-like kinase 1 (NUAK1, Homo sapiens, UniProt O60285); test = kinase binding, KINOMEscan; scale = reference: DMSO control; value = 91%
target = Mitogen-activated protein kinase kinase kinase kinase 5 (MAP4K5, Homo sapiens, UniProt Q9Y4K4); test = kinase binding, KINOMEscan; scale = reference: DMSO control; value = 100%
target = Serine/threonine-protein kinase 38 (STK38, Homo sapiens, UniProt Q15208); test = binding, competition with immobilised ligand; value = 49%
target = Cyclin-dependent kinase 19 (CDK19, Homo sapiens, UniProt Q9BWU1); test = KINOMEscan; value = 100%
target = Phosphatidylinositol 4-phosphate 5-kinase type-1 alpha (PIP5K1A, Homo sapiens, UniProt Q99755); test = binding, competition with immobilised ligand; value = 81%
target = Serine/threonine-protein kinase PAK 5 (PAK5, Homo sapiens, UniProt Q9P286); test = kinase binding, KINOMEscan; scale = reference: DMSO control; value = 93%
target = Mast/stem cell growth factor receptor Kit (KIT, Homo sapiens, UniProt P10721, D816H); test = kinase binding, KINOMEscan; scale = reference: DMSO control; value = 100%
target = Serine/threonine-protein kinase TAO2 (TAOK2, Homo sapiens, UniProt Q9UL54); test = kinase binding, KINOMEscan; scale = reference: DMSO control; value = 69%

Sample 2 — effect on: thermal unfolding; technique: differential scanning fluorimetry; concentration: 5.5 µM; direction: higher = more unfolded; measurement: SYPRO Orange fluorescence
Structure (SMILES): C[C@@H]1CN(c2ccc(-c3cc(C(=O)NCCOCCOCCOCCOCCNC(=O)Cn4cc(-c5[nH]cc(C(=O)N[C@@H](CC(N)=O)c6ccc(F)c(Cl)c6)c5-c5ccc(Cl)cc5F)cn4)ccc3F)cc2NC(=O)c2c[nH]c(=O)cc2C(F)(F)F)C[C@H](C)N1C
WDR5: WD repeat-containing protein 5 (WDR5, Homo sapiens, UniProt P61964)
DCAF1: DDB1- and CUL4-associated factor 1 (DCAF1, Homo sapiens, UniProt Q9Y4B6)
Chain of UniProt Q9Y4B6 (whole entry, looked up): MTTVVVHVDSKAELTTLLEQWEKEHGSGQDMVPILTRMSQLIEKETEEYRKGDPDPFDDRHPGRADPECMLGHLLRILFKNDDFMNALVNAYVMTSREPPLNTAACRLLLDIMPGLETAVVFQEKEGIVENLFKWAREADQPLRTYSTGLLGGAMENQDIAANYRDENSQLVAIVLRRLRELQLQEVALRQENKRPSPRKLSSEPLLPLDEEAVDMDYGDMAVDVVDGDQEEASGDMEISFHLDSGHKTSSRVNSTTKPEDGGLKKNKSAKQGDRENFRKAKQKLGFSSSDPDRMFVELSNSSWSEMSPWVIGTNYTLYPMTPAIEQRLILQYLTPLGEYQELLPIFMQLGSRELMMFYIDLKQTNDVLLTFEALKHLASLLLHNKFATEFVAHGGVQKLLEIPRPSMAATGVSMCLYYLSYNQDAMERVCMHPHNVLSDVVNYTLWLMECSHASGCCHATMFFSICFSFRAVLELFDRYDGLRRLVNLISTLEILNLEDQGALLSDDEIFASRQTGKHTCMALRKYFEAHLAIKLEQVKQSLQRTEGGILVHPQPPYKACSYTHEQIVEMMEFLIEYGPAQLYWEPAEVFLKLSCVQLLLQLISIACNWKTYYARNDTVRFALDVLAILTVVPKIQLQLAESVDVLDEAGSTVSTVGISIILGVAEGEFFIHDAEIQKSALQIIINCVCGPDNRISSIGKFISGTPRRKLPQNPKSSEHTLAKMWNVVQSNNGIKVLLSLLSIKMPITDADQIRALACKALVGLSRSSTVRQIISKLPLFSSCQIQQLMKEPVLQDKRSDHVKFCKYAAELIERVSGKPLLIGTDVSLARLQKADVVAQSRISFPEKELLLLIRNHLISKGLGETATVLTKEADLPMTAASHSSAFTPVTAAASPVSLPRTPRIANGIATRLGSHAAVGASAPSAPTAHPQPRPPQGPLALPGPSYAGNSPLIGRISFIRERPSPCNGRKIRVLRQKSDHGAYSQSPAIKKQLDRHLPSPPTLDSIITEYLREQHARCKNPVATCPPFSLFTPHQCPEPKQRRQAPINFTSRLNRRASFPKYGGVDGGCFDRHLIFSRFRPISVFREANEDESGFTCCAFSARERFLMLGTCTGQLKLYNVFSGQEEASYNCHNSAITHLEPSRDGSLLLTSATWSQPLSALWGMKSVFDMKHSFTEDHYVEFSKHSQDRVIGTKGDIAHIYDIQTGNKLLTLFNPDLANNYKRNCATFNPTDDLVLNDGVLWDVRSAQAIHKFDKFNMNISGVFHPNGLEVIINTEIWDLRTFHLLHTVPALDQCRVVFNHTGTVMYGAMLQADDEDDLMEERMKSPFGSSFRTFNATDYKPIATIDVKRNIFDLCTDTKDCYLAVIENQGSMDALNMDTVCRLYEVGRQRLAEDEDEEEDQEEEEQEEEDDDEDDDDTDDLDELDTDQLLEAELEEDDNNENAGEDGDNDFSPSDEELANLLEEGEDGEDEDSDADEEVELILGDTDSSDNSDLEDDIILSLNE
target = WDR5; setting = 74.21 °C; value = 9830 a.u.
target = DCAF1; setting = 40.6 °C; value = 10600 a.u.
target = DCAF1; setting = 94.21 °C; value = 30700 a.u.
target = WDR5; setting = 54.01 °C; value = 14100 a.u.
target = WDR5; setting = 44.4 °C; value = 14500 a.u.
target = DCAF1; setting = 31.8 °C; value = 8250 a.u.
target = WDR5; setting = 66.81 °C; value = 7080 a.u.

Sample 3 — Structure (SMILES): O=C(Nc1ccccc1)Nc1cccc(Oc2ccc3nccn3n2)c1; concentration: 1 µM; measurement: remaining binding
target = Serine/threonine-protein kinase 24 (STK24, Homo sapiens, UniProt Q9Y6E0); test = binding; value = 97%
target = Ribosomal protein S6 kinase alpha-6, C-terminal kinase domain (RPS6KA6, Homo sapiens, UniProt Q9UK32); test = binding, competition with immobilised ligand; value = 100%
target = Serine/threonine-protein kinase PLK2 (PLK2, Homo sapiens, UniProt Q9NYY3); test = binding; value = 100%
target = Myosin light chain kinase, smooth muscle (MYLK, Homo sapiens, UniProt Q15746); test = binding; value = 100%
target = Dual specificity tyrosine-phosphorylation-regulated kinase 1B (DYRK1B, Homo sapiens, UniProt Q9Y463); test = binding; value = 55%
target = Serine/threonine-protein kinase SIK3 (SIK3, Homo sapiens, UniProt Q9Y2K2); test = cell-free binding; value = 100%
target = Fibroblast growth factor receptor 3 (FGFR3, Homo sapiens, UniProt P22607, G697C); test = binding; value = 91%
target = Serine/threonine-protein kinase PRP4 homolog (PRPF4B, Homo sapiens, UniProt Q13523); test = binding; value = 74%
target = Serine/threonine-protein kinase PAK 4 (PAK4, Homo sapiens, UniProt O96013); test = binding; value = 100%
target = ALK tyrosine kinase receptor (ALK, Homo sapiens, UniProt Q9UM73, C1156Y); test = binding; value = 88%
target = Non-receptor tyrosine-protein kinase TYK2 (TYK2, Homo sapiens, UniProt P29597); test = cell-free binding; setting = JH1 catalytic domain; value = 86%
target = Receptor-type tyrosine-protein kinase FLT3 (FLT3, Homo sapiens, UniProt P36888, R834Q); test = binding; value = 96%

Sample 4 — measurement: inhibition
Compound: C=C(CN)COc1cccc(Cn2c(=S)[nH]c(=O)c3[nH]cnc32)c1
MPO: Myeloperoxidase (MPO, Homo sapiens, UniProt P05164)
Chain of UniProt P05164 (whole entry, looked up): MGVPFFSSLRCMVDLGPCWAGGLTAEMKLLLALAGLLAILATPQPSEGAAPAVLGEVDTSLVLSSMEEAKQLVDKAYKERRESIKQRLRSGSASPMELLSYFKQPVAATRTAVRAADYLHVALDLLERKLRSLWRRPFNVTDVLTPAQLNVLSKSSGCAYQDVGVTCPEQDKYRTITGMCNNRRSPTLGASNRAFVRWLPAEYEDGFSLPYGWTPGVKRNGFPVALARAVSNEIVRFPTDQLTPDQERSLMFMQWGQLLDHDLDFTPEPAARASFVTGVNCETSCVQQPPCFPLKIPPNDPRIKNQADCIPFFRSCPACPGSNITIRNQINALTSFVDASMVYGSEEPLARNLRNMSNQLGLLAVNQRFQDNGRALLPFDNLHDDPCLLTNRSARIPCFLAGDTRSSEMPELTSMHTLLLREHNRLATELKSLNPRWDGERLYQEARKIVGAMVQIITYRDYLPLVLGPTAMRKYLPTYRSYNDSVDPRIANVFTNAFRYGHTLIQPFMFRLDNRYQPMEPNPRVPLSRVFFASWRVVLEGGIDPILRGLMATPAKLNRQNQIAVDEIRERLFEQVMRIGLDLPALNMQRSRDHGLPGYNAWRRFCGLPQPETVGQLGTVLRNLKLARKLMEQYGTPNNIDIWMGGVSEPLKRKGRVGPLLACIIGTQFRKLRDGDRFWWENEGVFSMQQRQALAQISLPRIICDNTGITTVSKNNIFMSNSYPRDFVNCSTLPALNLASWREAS
AOC3: Amine oxidase [copper-containing] 3 (AOC3, Homo sapiens, UniProt Q16853)
Chain of UniProt Q16853 (whole entry, looked up): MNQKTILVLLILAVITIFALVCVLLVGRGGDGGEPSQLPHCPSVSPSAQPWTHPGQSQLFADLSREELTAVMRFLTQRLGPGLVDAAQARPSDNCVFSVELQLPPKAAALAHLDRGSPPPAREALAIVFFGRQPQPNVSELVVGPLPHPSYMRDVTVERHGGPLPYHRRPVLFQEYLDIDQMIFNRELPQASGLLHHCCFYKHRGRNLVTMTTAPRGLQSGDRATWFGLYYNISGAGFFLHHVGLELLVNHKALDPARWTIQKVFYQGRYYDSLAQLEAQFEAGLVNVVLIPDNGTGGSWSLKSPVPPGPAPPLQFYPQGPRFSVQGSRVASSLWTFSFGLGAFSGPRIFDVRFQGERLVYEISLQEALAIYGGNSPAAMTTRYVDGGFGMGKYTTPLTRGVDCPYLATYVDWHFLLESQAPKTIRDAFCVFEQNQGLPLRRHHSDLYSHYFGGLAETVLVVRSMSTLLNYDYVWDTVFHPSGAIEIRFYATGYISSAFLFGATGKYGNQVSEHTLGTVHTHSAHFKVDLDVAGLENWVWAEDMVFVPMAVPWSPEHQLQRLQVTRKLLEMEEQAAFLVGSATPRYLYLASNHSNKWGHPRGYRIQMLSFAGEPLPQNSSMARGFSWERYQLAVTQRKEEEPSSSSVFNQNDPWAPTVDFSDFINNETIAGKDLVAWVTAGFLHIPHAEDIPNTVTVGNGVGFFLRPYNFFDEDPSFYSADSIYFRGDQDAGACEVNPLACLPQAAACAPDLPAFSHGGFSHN
target = MPO; test = enzyme activity, inhibitor, fluorescence; setting = 0.1111 µM; value = 87.9%
target = AOC3; test = H2O2 production, inhibitor, Amplex Red; setting = 0.3704 µM; value = 16.6 % Inhibition
target = MPO; test = enzyme activity, inhibitor, fluorescence; setting = 0.3333 µM; value = 97.1%
target = MPO; test = enzyme activity; setting = 0.0137 µM; value = 51.3% and 40.5%
target = AOC3; test = enzyme activity, Amplex Red H2O2 production; setting = 0.0046 µM, mean value; value = 1.71%
target = MPO; test = enzyme activity; setting = 0.1235 µM; value = 93.6% and 94.8%
target = AOC3; test = enzyme activity, Amplex Red H2O2 production; setting = 0.0015 µM, mean value; value = 4.31%
target = AOC3; test = enzyme activity, Amplex Red H2O2 production; setting = 1.111 µM, mean value; value = 42%
target = AOC3; test = enzyme activity, Amplex Red H2O2 production; setting = 10 µM; value = 93.5%
target = AOC3; test = enzyme activity, Amplex Red H2O2 production; setting = 0.0412 µM, mean value; value = 10.2%
target = AOC3; test = H2O2 production, inhibitor, Amplex Red; setting = 0.0005 µM; value = 9.6 % Inhibition and -4.07 % Inhibition
target = MPO; test = enzyme activity; setting = 0.0046 µM; value = 19.5% and 28.4%
target = AOC3; test = enzyme activity, Amplex Red H2O2 production; setting = 0.0137 µM, mean value; value = 9.03%

Excerpt of the above (sample 1):
target = Epidermal growth factor receptor (EGFR, Homo sapiens, UniProt P00533, del747-752/P753S); test = kinase binding, KINOMEscan; scale = reference: DMSO control; value = 82%
target = NUAK family SNF1-like kinase 1 (NUAK1, Homo sapiens, UniProt O60285); test = kinase binding, KINOMEscan; scale = reference: DMSO control; value = 91%
target = Mitogen-activated protein kinase kinase kinase kinase 5 (MAP4K5, Homo sapiens, UniProt Q9Y4K4); test = kinase binding, KINOMEscan; scale = reference: DMSO control; value = 100%
target = Serine/threonine-protein kinase 38 (STK38, Homo sapiens, UniProt Q15208); test = binding, competition with immobilised ligand; value = 49%
